Measured values from different studies.
Every numbered part comes from another study and shows a few of its results, in no order. Positions count from the first letter of the parent shown.

Study 1 — technique: DHFR PCA, deep sequencing; medium: yeast; together with: (+)-ABA 0 µM; baseline: wild-type fitted maximum; direction: higher = stronger binding
Target: ABI1, truncated, D143A, DHFR fusion (Arabidopsis thaliana)
Notes: methotrexate growth selection, single substitutions
Starting sequence: PYL1, truncated, DHFR fusion (Arabidopsis thaliana); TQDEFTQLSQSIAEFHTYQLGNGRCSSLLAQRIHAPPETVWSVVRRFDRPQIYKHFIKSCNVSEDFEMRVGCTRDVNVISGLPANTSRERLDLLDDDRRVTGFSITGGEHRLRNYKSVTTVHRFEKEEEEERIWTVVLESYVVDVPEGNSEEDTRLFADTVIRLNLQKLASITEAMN; partner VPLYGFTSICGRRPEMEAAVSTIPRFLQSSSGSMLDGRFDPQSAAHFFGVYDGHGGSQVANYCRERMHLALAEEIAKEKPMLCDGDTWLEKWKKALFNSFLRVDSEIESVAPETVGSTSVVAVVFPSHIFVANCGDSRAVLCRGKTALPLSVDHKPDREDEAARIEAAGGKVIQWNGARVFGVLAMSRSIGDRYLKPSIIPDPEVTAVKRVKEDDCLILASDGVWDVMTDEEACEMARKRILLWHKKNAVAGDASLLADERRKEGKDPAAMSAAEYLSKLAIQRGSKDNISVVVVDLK
| Change | relative binding score [%] |
| --- | --- |
| L156D | -0.776 |
| A84P | 31.4 |
| T120R | -6.2 |
| L91M | 2.37 |
| E129L | 12.7 |
| M68N | 3.04 |
| V118C | 12 |
| T135G | -14.9 |
| E130Q | 25.4 |
| D159G | -3.86 |
| T86E | -1.8 |
| P36S | 22.1 |
| S63P | 40.1 |

Study 2 — target: CCNE1, cyclin fold, Cln2 fusion (human); technique: yeast growth competition, sequencing; medium: yeast; notes: strong parent motif; baseline: not given; direction: higher = stronger binding
Starting sequence: E2F1 docking peptide (human); PPVKRRLDLETDH
| Change | normalised enrichment score |
| --- | --- |
| PPVKRRLWLETDH [D8W] | 4.87 |
| PPLKRRLDLETDH [V3L] | -1.11 |
| PPVTRRLDLETDH [K4T] | -0.678 |
| PPVKRRLDLETMH [D12M] | 1.87 |
| PPVKRPLDLETDH [R6P] | -0.127 |
| PPVKFRLDLETDH [R5F] | 0.345 |
| PPWKRRLDLETDH [V3W] | 0.923 |
| PPVFRRLDLETDH [K4F] | 0.432 |
| PPVKRRLDLESDH [T11S] | 2.45 |
| PPVKVRLDLETDH [R5V] | -0.619 |
| PPVKRRLILETDH [D8I] | 1.68 |
| PPVKMRLDLETDH [R5M] | 0.132 |

Study 3 — technique: protein-binding microarray; molecule type: double-stranded DNA, one strand shown; medium: in vitro; tested at: 250 nM; notes: 60-bp whole probe; together with: salmon DNA 0.4 mg/ml; baseline: random background probes; direction: higher = stronger binding; all sequences stand within: GCCTAGCAC … GTCTTGATTCGCTTGACGCTGCTG
Target: Interferon regulatory factor 7, full length, phosphomimetic (IRF7, Homo sapiens, UniProt Q92985, residues 1-503, S101K/S471D/S472D/S475D/S476D/S477D/S483D/S484D/S487D)
Construct (chain): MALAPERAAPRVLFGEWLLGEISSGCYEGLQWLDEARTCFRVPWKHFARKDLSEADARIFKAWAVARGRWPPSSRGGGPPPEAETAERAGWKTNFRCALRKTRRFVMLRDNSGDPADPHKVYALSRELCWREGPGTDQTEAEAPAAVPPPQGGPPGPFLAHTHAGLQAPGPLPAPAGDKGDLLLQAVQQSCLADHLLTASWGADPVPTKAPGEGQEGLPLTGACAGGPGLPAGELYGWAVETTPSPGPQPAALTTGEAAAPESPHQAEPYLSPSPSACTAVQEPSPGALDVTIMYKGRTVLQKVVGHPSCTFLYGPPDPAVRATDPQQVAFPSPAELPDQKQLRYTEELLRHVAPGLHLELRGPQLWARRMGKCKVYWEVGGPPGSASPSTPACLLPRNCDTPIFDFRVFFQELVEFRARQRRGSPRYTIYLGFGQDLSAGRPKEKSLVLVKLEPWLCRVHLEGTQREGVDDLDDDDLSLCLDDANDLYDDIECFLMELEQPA
| Oligonucleotide | log fluorescence [z-score] |
| --- | --- |
| TTAGATATCGGGTATCGAATAGTGCTA | 0.228 |
| GACGGTGTCGGGTTTCGGGACGTGCTA | 0.771 |
| GATTCTTTCGATGCTAAACGAGTGCTA | 1.64 |
| TTAGATTTCAGACTGAATTAGTGCTAG | 0.313 |
| TTAGGTCTCGGTTGCGGTTAGTGCTAG | 2.42 |
| TTTCTTACATGCATCATAACGTGCTAG | 0.954 |
| GACGAACTGGGGTATCGGGACGTGCTA | -0.364 |
| GACGATATGAGTATCGAGACGTGCTAG | -0.0302 |
| TCACTTCCCCTCTCTTTCACTGTGCTA | 1.24 |
| GTAGGACTGGGTATCGGTTAGTGCTAG | 0.598 |
| GACGGGATCGACTATCGGGACGTGCTA | -0.44 |
| TTAGTACTGGGACTGGGTTAGTGCTAG | 0.0659 |
| TTGTGTCTGGGCATTTTTTTAGTGCTA | -1.01 |
| TTAGGTCTCCTTTTCATTTAGTGCTAG | 1.73 |
| GACGACATCAGACTGGAGACGTGCTAG | -0.36 |
| TTAGGTATCGGGTTTCCGTTAGTGCTA | 3.23 |
| GAGGATATCGGGTTTCGAGACGTGCTA | 2.57 |
| AGTGGTATAGCACTAAGGGAGTGCTAG | -1.19 |

Study 4 — technique: Sort-seq; measured: YFP reporter; medium: E. coli; notes: PhoQ-PhoP variant library; together with: 10 µM Mg2+; baseline: high Mg2+ state; direction: higher = stronger signaling
Substance: PhoQ, residues 284 288 289 292 302 303 NSMLDC
| target | fold induction |
| --- | --- |
| PhoP, residues 12 14 15 18 19 QQAYL (Escherichia coli, UniProt P23836) | 13.9 |
| PhoP, residues 12 14 15 18 19 LFHKL (Escherichia coli, UniProt P23836) | 2.97 |
| PhoP, residues 12 14 15 18 19 GMGLL (Escherichia coli, UniProt P23836) | 6.06 |

A few entries again (study 1):
| Change | relative binding score [%] |
| --- | --- |
| V118C | 12 |
| T135G | -14.9 |
| T120R | -6.2 |
| E130Q | 25.4 |
| P36S | 22.1 |
| M68N | 3.04 |
| S63P | 40.1 |
| T86E | -1.8 |
